Experimental data pooled from the literature.
Numbered parts are unrelated; each lists some results of a single study. Changes are numbered by the printed parent chain.
UniProt O15294, sequence (whole entry, looked up): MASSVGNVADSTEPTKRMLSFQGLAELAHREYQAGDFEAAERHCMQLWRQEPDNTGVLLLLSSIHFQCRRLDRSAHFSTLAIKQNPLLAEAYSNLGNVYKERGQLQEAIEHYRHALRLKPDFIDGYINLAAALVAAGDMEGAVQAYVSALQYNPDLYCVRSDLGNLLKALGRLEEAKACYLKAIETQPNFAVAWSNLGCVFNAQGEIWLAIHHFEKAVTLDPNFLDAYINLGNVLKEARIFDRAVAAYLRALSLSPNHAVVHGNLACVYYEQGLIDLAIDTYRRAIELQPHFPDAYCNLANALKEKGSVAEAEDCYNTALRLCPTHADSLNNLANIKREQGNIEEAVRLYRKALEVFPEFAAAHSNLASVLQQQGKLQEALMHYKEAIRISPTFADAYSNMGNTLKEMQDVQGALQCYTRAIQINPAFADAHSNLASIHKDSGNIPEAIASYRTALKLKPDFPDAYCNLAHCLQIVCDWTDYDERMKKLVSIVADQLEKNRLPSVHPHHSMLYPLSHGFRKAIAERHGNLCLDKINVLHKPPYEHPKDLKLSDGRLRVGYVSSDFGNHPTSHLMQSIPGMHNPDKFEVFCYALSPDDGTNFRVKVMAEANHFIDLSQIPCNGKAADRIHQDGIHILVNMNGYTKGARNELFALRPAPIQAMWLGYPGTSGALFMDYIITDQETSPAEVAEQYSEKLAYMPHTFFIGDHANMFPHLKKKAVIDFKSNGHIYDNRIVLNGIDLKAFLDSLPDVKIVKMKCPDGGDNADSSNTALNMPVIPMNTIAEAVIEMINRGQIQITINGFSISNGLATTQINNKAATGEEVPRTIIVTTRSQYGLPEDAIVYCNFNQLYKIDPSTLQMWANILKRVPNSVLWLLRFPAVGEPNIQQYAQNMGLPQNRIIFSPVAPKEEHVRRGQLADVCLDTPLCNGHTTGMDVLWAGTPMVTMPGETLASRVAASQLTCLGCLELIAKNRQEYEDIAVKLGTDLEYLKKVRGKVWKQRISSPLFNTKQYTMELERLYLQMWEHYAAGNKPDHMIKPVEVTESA
UniProt Q38826, sequence (whole entry, looked up): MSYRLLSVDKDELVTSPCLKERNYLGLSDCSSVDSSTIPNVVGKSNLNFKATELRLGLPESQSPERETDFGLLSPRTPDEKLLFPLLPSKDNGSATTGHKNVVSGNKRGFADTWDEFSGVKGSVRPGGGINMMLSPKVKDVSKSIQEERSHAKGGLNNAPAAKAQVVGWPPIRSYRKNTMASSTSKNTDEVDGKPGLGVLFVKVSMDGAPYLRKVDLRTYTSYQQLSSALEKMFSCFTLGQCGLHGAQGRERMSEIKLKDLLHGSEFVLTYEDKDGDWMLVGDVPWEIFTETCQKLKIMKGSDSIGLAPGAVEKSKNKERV
UniProt Q9ZSY8, sequence (whole entry, looked up): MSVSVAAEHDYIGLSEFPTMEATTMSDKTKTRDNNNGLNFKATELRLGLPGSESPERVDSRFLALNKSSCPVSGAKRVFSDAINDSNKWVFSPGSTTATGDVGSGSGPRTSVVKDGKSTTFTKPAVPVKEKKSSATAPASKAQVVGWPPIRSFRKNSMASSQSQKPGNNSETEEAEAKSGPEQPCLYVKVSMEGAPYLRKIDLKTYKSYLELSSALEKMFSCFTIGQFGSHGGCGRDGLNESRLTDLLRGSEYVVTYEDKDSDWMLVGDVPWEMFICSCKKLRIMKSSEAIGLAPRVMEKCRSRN
UniProt Q38830, sequence (whole entry, looked up): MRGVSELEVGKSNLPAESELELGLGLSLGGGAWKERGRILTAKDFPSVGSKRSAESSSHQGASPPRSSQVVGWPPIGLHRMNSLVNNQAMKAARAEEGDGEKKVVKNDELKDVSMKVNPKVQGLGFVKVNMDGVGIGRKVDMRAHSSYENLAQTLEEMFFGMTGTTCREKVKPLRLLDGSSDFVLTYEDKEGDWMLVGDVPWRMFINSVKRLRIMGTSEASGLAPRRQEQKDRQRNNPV
UniProt Q9XFM0, sequence (whole entry, looked up): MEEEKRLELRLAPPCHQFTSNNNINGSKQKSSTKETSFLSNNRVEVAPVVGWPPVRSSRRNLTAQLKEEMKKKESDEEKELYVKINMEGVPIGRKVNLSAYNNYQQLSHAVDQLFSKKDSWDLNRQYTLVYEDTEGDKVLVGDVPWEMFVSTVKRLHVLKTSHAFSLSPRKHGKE
UniProt Q9C7I9, sequence (whole entry, looked up): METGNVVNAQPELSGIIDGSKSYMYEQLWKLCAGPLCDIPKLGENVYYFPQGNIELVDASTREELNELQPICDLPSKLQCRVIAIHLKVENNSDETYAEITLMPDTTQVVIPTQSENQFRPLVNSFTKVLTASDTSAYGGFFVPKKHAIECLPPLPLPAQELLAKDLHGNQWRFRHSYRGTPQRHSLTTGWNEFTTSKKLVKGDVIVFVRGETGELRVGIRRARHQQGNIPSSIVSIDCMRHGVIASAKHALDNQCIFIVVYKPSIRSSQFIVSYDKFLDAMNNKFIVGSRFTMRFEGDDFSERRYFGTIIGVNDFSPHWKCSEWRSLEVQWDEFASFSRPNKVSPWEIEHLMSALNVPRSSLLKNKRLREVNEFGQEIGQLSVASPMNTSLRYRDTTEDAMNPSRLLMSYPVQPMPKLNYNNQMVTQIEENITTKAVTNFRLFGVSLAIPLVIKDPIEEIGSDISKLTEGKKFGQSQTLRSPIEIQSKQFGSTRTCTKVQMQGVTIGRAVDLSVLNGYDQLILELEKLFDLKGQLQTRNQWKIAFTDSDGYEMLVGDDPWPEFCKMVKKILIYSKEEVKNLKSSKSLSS
UniProt Q9C5W9, sequence (whole entry, looked up): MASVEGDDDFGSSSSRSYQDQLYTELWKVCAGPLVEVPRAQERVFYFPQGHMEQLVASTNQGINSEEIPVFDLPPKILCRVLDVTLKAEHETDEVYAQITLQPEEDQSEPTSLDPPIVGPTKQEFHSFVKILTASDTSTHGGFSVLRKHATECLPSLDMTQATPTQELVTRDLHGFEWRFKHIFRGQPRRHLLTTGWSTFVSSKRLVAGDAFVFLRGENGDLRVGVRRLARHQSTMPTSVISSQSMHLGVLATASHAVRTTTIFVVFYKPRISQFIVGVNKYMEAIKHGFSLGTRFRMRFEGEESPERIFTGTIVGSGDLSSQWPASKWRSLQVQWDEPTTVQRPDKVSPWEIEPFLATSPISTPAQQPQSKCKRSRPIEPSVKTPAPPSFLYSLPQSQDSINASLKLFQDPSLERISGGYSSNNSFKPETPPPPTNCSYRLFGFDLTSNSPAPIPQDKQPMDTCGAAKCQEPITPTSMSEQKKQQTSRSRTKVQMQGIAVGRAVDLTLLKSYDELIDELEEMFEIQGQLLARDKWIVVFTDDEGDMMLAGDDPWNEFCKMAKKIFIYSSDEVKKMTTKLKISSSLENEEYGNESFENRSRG
UniProt Q9XID4, sequence (whole entry, looked up): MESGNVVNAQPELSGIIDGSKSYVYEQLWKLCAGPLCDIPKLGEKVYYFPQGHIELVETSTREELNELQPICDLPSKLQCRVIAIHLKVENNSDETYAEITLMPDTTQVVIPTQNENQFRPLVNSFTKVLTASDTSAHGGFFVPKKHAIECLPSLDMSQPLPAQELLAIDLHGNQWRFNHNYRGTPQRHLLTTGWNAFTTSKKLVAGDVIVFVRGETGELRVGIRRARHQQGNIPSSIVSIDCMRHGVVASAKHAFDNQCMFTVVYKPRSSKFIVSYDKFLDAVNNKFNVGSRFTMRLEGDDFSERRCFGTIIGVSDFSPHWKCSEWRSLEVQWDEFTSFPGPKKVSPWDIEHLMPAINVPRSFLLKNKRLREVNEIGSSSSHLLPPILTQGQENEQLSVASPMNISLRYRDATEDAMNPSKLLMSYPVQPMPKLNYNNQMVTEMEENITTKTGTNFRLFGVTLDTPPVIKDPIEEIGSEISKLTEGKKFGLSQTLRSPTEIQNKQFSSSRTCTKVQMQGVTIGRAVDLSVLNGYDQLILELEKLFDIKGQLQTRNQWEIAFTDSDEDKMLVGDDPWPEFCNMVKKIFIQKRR

Study 1 — partner: CHTOP (Homo sapiens, UniProt Q9Y3Y2); technique: cross-linking MS; sample: cell fractions; together with: DSSO
| Molecule | cross-linked residues |
| --- | --- |
| FYTTD1 (Homo sapiens, UniProt Q96QD9) | K166 to K81 |
| POLDIP3 (Homo sapiens, UniProt Q9BY77) | K144 to K81 |
| DDX39B (Homo sapiens, UniProt Q13838) | K188 to S225 |

Study 2 — technique: protein binding microarray; molecule type: double-stranded DNA, one strand shown; sample: in vitro; concentration: not given; relative to: not given; direction: higher = stronger binding
Target: Histone acetyltransferase KAT6A, both winged helices, GST fusion (KAT6A, Homo sapiens, UniProt Q92794, residues 1-181)
Setting: 8-mer, flanks averaged, mean of 2 arrays, mostly near background
Construct (chain): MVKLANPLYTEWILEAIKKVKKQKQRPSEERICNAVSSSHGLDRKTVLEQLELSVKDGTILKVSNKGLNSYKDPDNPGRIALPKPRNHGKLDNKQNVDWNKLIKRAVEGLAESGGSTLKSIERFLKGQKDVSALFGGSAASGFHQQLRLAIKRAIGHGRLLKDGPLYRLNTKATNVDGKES
| Oligonucleotide | E-score |
| --- | --- |
| AATGGCTA | -0.228 |
| ATCTGTAG | -0.112 |
| CTTCCGAA | 0.101 |
| CGCATTAG | 0.0878 |
| CACCGTAG | 0.146 |
| ACGTCAGT | -0.119 |
| GTTCAATA | -0.0572 |
| GAGTACAC | 0.0115 |

Study 3 — Sequence: B1 (IAA5); technique: two-hybrid; relative to: out of 4 tests; direction: higher = firmer interaction
B1: IAA5 (Arabidopsis thaliana, UniProt P33078); chain MANESNNLGLEITELRLGLPGDIVVSGESISGKKRASPEVEIDLKCEPAKKSQVVGWPPVCSYRRKNSLERTKSSYVKVSVDGAAFLRKIDLEMYKCYQDLASALQILFGCYINFDDTLKESECVPIYEDKDGDWMLAGDVPWEMFLGSCKRLRIMKRSCNRG
| partner | positive tests |
| --- | --- |
| IAA12 (Arabidopsis thaliana, UniProt Q38830) | 3 |
| ARF18 482-602 (Arabidopsis thaliana, UniProt Q9C5W9) | 0 |
| ARF20 484-590 (Arabidopsis thaliana, UniProt Q9C7I9) | 2 |
| IAA27 (Arabidopsis thaliana, UniProt Q9ZSY8) | 4 |
| IAA8 (Arabidopsis thaliana, UniProt Q38826) | 4 |
| IAA19 (Arabidopsis thaliana, UniProt O24409) | 4 |
| IAA28 (Arabidopsis thaliana, UniProt Q9XFM0) | 4 |
| ARF12 500-593 (Arabidopsis thaliana, UniProt Q9XID4) | 0 |

Single results of other studies
P1: PafA, mature enzyme, eGFP fusion (Elizabethkingia meningoseptica, UniProt Q9KJX5); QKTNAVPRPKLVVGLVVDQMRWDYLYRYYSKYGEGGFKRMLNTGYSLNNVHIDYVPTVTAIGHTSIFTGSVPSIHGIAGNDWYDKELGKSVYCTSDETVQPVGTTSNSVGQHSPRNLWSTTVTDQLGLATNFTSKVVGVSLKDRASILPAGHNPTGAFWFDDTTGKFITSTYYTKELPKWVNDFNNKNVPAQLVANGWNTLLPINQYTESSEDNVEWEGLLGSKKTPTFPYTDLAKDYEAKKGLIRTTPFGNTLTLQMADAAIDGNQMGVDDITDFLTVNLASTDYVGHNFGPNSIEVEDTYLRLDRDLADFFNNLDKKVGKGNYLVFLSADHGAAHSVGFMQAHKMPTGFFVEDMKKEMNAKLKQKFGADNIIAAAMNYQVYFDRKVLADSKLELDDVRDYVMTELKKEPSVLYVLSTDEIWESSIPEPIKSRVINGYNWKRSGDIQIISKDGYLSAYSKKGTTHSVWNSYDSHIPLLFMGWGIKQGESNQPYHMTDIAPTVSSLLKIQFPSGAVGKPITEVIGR
| Molecule | tested on | assay | test system | setting | scale | measurement | value |
| --- | --- | --- | --- | --- | --- | --- | --- |
| P1 M342G | tungstate, free oxyanion | microfluidic competitive inhibition | in vitro, cell-free expressed | not given, derived from inhibition constants, unchanged parent 2230 nM | lower = stronger binding | oxyanion analog dissociation constant | 1.78 µM |
| CN(C)CCC(c1ccccc1)c1ccccn1 (centres unmarked) | HEK-293T | pseudovirus infection, FDA-approved drug library counter-screen | VSV pseudotyped with VSV-G | 10 µM, 16 h | relative to: vehicle-treated | GFP-positive cells | 120% |
| P1 R434G | tungstate, free oxyanion | microfluidic competitive inhibition | in vitro, cell-free expressed | not given, derived from inhibition constants, unchanged parent 2230 nM | lower = stronger binding | oxyanion analog dissociation constant | 1.28 µM |
| SSYMPQYQISFLKKE | OGT (Homo sapiens, UniProt O15294) | binding, phage display NGS | peptide | concentration not given | relative to: input library | enrichment fold change | 3.49 |
